Assay results from different studies.
Parts stem from different laboratories: compare values within a part only. Substitutions count along the parent as printed.

Set 1 — method: DHFR PCA, dose-response; medium: yeast; notes: Hill fit, mean, not affinity; added: (+)-ABA, dose series; direction: lower = more sensitive
Target: ABI1, truncated, D143A, DHFR fusion (Arabidopsis thaliana, UniProt P49597)
Parent: PYL1, truncated, DHFR fusion (Arabidopsis thaliana, UniProt Q8VZS8); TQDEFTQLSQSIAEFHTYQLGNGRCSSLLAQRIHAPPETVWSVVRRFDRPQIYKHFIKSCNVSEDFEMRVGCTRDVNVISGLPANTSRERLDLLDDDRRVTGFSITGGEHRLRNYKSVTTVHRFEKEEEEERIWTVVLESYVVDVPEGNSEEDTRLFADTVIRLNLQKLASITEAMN
| Change | ABA EC50 [µM] |
| --- | --- |
| R111F | 93.9 |
| G107P | 321 |
| S150Q | 32.4 |
| A30K | 1.74 |
| G107C | 76.9 |
| S27N | 4.71 |
| Y53I | 186 |
| S26A | 3.2 |
| E151M | 5.87 |
| S80E | 130 |
| G71R | 271 |
| R155G | 111 |
| E125D | 1.67 |
| Y115M | 172 |
| Q7Y | 1.81 |
| L28G | 218 |
| I79A | 6.66 |
| S42Y | 33.3 |
| I12C | 75.3 |
| L29Y | 93.8 |
| T17H | 7.2 |
| Q19L | 6.18 |
| V62G | 137 |
| E125L | 2.42 |
| R45H | 314 |

Set 2 — method: universal PBM; form: double-stranded DNA, one strand shown; medium: in vitro; concentration: 600 nM; direction: higher = stronger binding
Target: Sal-like protein 4, full length isoform A (SALL4, Homo sapiens, UniProt Q9UJQ4, residues 1-1053)
Chain of UniProt Q9UJQ4 (whole entry, looked up): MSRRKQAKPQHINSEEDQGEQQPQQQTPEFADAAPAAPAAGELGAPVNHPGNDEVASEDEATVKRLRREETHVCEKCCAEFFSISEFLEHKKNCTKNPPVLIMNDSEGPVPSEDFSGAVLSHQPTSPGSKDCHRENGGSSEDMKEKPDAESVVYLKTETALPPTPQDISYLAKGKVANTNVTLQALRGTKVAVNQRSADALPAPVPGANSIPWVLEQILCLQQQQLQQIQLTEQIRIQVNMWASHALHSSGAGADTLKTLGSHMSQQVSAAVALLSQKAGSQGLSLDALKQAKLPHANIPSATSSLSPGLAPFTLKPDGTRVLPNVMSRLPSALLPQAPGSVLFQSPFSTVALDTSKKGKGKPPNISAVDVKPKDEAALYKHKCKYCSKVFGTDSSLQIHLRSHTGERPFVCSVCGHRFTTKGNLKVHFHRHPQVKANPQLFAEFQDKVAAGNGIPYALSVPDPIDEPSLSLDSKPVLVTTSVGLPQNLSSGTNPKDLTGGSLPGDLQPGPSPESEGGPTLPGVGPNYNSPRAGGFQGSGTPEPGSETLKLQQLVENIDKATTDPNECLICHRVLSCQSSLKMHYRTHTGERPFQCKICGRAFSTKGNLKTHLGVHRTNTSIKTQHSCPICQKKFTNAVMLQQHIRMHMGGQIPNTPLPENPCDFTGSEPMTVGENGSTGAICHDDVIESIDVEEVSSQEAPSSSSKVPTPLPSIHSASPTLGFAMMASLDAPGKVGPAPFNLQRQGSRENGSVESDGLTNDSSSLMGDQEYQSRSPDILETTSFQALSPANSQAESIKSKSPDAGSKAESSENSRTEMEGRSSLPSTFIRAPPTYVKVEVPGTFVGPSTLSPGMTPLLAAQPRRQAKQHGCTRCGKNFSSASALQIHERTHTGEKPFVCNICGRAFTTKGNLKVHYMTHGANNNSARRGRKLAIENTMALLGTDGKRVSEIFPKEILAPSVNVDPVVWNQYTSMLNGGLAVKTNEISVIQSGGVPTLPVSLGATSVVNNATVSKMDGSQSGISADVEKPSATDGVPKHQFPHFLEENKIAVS
Notes: 8-mer, flanks averaged, mean of replicates
| Sequence | E-score |
| --- | --- |
| CATGTCCG | -0.29 |
| CTAGTGGA | -0.198 |
| ATTAGCTC | 0.102 |
| GGAGAGCC | -0.233 |
| AGGCGAAT | 0.102 |
| CACGTAGA | -0.0754 |
| CCCTTACC | -0.0801 |
| CAACCCTA | -0.172 |
| ATCGGACC | -0.28 |
| AGCCCCAG | -0.378 |
| CCGACTCC | -0.21 |
| ACTGCTTG | -0.123 |
| AATTAACG | 0.246 |
| AGATGCAG | -0.0602 |
| AAGGATGT | -0.0812 |
| AGACAGAT | 0.159 |
| ATACTTTC | 0.232 |
| AATCGACA | 0.236 |
| CGTAACTA | 0.0885 |
| AGTAACAT | 0.116 |
| GTCGGTCA | -0.00619 |
| AAAGTTCG | -0.0147 |
| CGCAATAG | 0.0227 |
| CTCTGACC | -0.292 |
| ACATTTGC | 0.0419 |

Set 3 — target: UBE2L6 UBC core domain (UniProt O14933); method: yeast two-hybrid; medium: yeast; notes: mostly zero background; baseline: not given; direction: higher = stronger interaction
Chain of UniProt O14933 (whole entry, looked up): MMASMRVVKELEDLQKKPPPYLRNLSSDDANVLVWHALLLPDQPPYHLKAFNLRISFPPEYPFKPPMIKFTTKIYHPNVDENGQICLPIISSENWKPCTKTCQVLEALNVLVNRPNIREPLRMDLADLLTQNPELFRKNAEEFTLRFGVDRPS
B1: DZIP3 RING domain (UniProt Q86Y13); chain PDEEEEEEEPCVICHENLSPENLSVLPCAHKFHAQCIRPWLMQQGTCPTCRLHVLLPEEFP
B2: UBOX5 RING domain (UniProt O94941); chain EQPGSILGPECASCKRVFSPYFKKEPVYQLPCGHLLCRPCLGEKQRSLPMTCTACQRPVASQDVLR
B3: DTX2 RING domain (UniProt Q86UW9); chain EELKVPPDEDCIICMEKLSTASGYSDVTDSKAIGSLAVGHLTKCSHAFHLLCLLAMYCNGNKDGSLQCPSCKTIYGEKTGTQ
B4: ZMIZ2 RING domain (UniProt Q8NF64); chain GTIPGTPGPNGEDGVEQTAIKVSLKCPITFRRIQLPARGHDCRHIQCFDLESYLQLNCERGTWRCPVCNKTALLEGLEVDQYMLGILIYIQNSDYEEITIDPTCSWK
B5: RNF121 RING domain (UniProt Q9H920); chain MPTKHLSDSVCAVCGQQIFVDVSEEGIIENTYRLSCNHVFHEFCIRGWCIVGKKQTCPYCKEKVDLKRMFS
B6: MDM4 RING domain (UniProt O15151); chain MEDCQNLLKPCSLCEKRPRDGNIIHGRTGHLVTCFHCARRLKKAGASCPICKKEIQLVIKVF
B7: SYTL4 RING domain (UniProt Q96C24); chain RGSQHYSDRTCARCQESLGRLSPKTNTCRGCNHLVCRDCRIQESNGTWRCKVCAKEIELKKAT
B8: RNF19A RING domain (UniProt Q9NV58); chain ISKQIGDFIECPLCLLRHSKDRFPDIMTCHHRSCVDCLRQYLRIEISESRVNISCPECTERFNPHDIR
B9: SH3RF1 RING domain (UniProt Q7Z6J0); chain DESALLDLLECPVCLERLDASAKVLPCQHTFCKRCLLGIVGSRNELRCPECRTLVGSGVEEL
| Sequence | lacZ reporter activity |
| --- | --- |
| B1 (DZIP3 RING domain) | 0 |
| B2 (UBOX5 RING domain) | 0 |
| AVPSGLEENLCKICMDSPIDCVLLECGHMVTCTKCGKRMNECPICRQYVIRAVHVF (RFFL RING domain (UniProt Q8WZ73)) | 0 |
| GSDDEEIPFKCFICRQSFQNPVVTKCRHYFCESCALQHFRTTPRCYVCDQQTNGVFNPA (RNF113A RING domain (UniProt O15541)) | 0 |
| B3 (DTX2 RING domain) | 0 |
| B4 (ZMIZ2 RING domain) | 0 |
| YQNEVDDDLVCHICLQPLLQPLDTPCGHTFCYKCLRNFLQEKDFCPLDRKRLHFKLCKK (LNX2 RING domain (UniProt Q8N448)) | 0 |
| B5 (RNF121 RING domain) | 0 |
| B6 (MDM4 RING domain) | 0 |
| FDGDVDPDLKCALCHKVLEDPLTTPCGHVFCAGCVLPWVVQEGSCPARCRGRLSAKELN (PDZRN3 RING domain (UniProt Q9UPQ7)) | 0 |
| B7 (SYTL4 RING domain) | 0 |
| B8 (RNF19A RING domain) | 0 |
| AMYLQENGIDCPKCKFSYALARGGCMHFHCTQCRHQFCSGCYNAFYAKNKC (RNF31 RING domain (UniProt Q96EP0)) | 0 |
| GSRLQEINDVCAICYHEFTTSARITPCNHYFHALCLRKWLYIQDTCPMCHQKVYIEDDIK (RNF139 RING domain (UniProt Q8WU17)) | 0 |
| PEDRESLKSACVVCLSSFKSCVFLECGHVCSCTECYRALPEPKKCPICRQAITRVIPLY (MUL1 RING domain (UniProt Q969V5)) | 14700 |
| B9 (SH3RF1 RING domain) | 0 |

Set 4 — target: CCNA1, cyclin fold, Cln2 fusion (human); method: yeast growth competition, sequencing; medium: yeast; notes: strong parent motif; baseline: not given; direction: higher = stronger binding
Parent: RBL2 docking peptide (human); STTRRRLFVENDS
| Change | normalised enrichment score |
| --- | --- |
| STTRRRMFVENDS [L7M] | 0.199 |
| STTRRVLFVENDS [R6V] | 0.712 |
| STTRRKLFVENDS [R6K] | 0.428 |
| GTTRRRLFVENDS [S1G] | 0.725 |
| STTRRRLIVENDS [F8I] | 0.345 |
| STTRRRLHVENDS [F8H] | 0.0898 |
| STMRRRLFVENDS [T3M] | 0.196 |
| STTRRRLFVENDY [S13Y] | 0.46 |
| STTRRRLMVENDS [F8M] | 0.098 |
| SPTRRRLFVENDS [T2P] | 0.407 |
| STTIRRLFVENDS [R4I] | 0.477 |
| SCTRRRLFVENDS [T2C] | 0.317 |
| STSRRRLFVENDS [T3S] | 0.431 |
| STTRWRLFVENDS [R5W] | 0.182 |
| STTRMRLFVENDS [R5M] | 0.323 |
| STTRRSLFVENDS [R6S] | 0.231 |

Set 5 — method: RNA Bind-n-Seq; form: RNA; medium: in vitro; concentration: 365 nM; baseline: no-protein control; direction: higher = stronger binding
Target: RNA binding protein fox-1 homolog 2, RRM domain, GST-SBP tag (RBFOX2, Homo sapiens, UniProt O43251-10, residues 100-194)
Notes: natural RNA segment, single round, ends assumed
Constant ends, left off below: GGGAGUUCUACAGUCCGACGAUC … UGGAAUUCUCGGGUGCCAA
Construct (chain): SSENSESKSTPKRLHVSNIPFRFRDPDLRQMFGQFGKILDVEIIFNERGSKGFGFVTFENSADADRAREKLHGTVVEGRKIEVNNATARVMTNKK
| Sequence | RBNS enrichment (R) |
| --- | --- |
| UAGCCCUGAGGUAGUCAGGGCUAGCUCCGGAUGGCUGGAGAAGCUGACCUUGUGCCUUAAGUCUACUAGUGCCUGAUGGAGCCACCCUCAUAGGGCUGAACCAGUGGGGC | 0.258 |
| AGGGUCUCCCUGCCCACUGGGCUGUUCCAGACCUGUGAUACUGUGUUUGUAUGUUGAUAUCCCAUGUGUACAAAUGUGUUUACCAUUGGGGCUGGGGGUGGGUGGCUGUC | 0.75 |
| GCCUCCUUGACGUGGACAAUCACUAGACUCAGUGCUCUGAGAAAAUCUGCUAUUUCUGUUGAAUGGGUCAGUCUUAAAGCUUUAAAAUUCACAUAGGUGGAGUUUCCCAU | 0.34 |
| AAGUUAAAAUUUAAGAUAAGGUUUAAAAAGCUUUAUUCCUGUUUACAAUUUGGGAUGAGAAGCAGGCUUCGUUUUAAGUUUAUUGAAAACUGGCUCAGAUGUUUAUAAGU | 0.6 |
| UGAUUAGUUGAGUGACAGGAGUUAACAGUGAUAGUGGUUUGAGCUUUGUGUCUGUGACUCUUGUCUUCAUGGAGAUUCCAUUCUGACCCACUUCCUCAUGUCUAAACUGA | 0.334 |
| UGUGGGUCUCUCCAGUAAGAAAGAUGCUAAAAGUUUUGUGCACUUUUUGUGUGUGUAAUGCAAAUUAGUUAAAACAAAUAGUUUUGGAGAAAGUUAAAACUAGCUUUAGA | 0.622 |
| AAAGGGUCAAUGGACCUUUCUUUGCACUGUGUGACUUAAUCAACUAUAAAAGCUUACAAUUAGUCUUACAGUUAUGGGAUUGUUAUACUAACCGUGUGAUUGGAACUCCA | 0.356 |
| GUGCCAUUCACACUGGUCUUUUUCACAUUGUUUUGAGCUUAUUGCAGUAUAUGUUUUGGGAUUUUUCUGUAAAAUGGGUGUAAUUUUCCUAAUACAGGUAUGUAACAACA | 0.501 |
| CCGCACCAGAGCCACGGGCUGUGGGGCGGGGAGCCCUCCCCCGCUGCAGCCCUCUCAGAACAGAGGGGUAGGGAGGGUGCACCAGUGCACCAGGAAGGCUGUGUGGGUCU | 0.297 |
| UGGUACCCUGGCUGCAGCCCAGCGGGGGCUGGAGAGGCAGGGGAGGGCAGUGGUCCUUCCAAAUAGAAGUCCUGGGGCCUGGCCAGGCCAGGGUUUGGGCCUAAUGGUUU | 0.521 |
| UUUGCAGGUGACCUGGUUACUUAGCUAGGAUUGGUGAUUUGUACUGCUUUAUGGUCAUUUGAAGGGCCCUUUAGUUUUUAUGAUAAUUUUUAAAAUAGGAACUUUUGAUA | 0.42 |
| UCUUGUUUCAGCUCUUGGCCUUUACCCAUGACUCAGCCUGGGGGCUGGUGCCGGCCUUGCCUGCAGCAAUGUAGCUGAGGACUGGUCUGAAGGCCAGGAGCCCUGUGCUC | 0.337 |
